Results from different studies.
Parts stem from different laboratories: compare values within a part only. “And” joins repeats or separate records; there may be more than shown.
Sequence of UniProt Q9H0K1 (whole entry, looked up): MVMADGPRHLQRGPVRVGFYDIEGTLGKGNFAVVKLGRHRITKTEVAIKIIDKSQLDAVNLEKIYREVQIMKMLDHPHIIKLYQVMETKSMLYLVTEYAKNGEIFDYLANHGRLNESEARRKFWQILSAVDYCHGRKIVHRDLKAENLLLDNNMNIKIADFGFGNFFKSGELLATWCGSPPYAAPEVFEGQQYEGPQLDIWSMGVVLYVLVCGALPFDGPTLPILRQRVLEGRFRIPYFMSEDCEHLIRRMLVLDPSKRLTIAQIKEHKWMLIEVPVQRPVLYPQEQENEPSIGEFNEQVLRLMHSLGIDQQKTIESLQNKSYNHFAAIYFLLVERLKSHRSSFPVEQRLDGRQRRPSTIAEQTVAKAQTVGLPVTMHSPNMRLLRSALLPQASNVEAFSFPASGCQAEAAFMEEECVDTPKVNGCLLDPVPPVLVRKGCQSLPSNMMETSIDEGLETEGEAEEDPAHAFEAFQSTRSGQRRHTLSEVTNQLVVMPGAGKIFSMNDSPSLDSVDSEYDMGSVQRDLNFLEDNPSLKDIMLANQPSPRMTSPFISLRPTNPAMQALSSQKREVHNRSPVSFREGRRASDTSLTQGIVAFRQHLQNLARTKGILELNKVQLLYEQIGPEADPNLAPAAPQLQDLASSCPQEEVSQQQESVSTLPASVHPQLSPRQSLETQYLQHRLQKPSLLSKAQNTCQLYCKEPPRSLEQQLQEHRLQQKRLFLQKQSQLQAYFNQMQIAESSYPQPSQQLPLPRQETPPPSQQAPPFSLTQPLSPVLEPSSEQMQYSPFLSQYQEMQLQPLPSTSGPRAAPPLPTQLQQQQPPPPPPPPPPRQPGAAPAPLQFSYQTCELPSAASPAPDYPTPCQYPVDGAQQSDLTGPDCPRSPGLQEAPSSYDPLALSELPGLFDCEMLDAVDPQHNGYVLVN
Sequence of UniProt O75676 (whole entry, looked up): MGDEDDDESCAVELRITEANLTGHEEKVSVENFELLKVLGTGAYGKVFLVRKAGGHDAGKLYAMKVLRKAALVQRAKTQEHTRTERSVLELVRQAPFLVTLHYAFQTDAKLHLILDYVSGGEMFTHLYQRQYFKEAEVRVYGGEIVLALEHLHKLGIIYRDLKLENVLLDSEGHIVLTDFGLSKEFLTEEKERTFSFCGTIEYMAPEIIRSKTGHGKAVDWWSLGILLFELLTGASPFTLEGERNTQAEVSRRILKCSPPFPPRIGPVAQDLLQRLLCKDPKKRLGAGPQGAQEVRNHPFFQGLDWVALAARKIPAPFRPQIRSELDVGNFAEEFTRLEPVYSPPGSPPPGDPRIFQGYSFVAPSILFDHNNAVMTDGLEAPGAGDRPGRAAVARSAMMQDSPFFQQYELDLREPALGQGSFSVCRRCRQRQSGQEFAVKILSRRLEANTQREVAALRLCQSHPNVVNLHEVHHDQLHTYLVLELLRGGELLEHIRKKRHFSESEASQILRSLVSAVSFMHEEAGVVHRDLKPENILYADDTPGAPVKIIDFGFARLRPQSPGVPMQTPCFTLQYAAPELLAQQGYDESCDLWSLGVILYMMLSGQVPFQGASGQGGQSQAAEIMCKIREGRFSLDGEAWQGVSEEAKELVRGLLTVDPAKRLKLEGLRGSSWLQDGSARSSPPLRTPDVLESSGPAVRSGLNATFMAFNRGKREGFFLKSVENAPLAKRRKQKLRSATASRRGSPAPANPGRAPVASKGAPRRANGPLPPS
Sequence of UniProt Q16644 (whole entry, looked up): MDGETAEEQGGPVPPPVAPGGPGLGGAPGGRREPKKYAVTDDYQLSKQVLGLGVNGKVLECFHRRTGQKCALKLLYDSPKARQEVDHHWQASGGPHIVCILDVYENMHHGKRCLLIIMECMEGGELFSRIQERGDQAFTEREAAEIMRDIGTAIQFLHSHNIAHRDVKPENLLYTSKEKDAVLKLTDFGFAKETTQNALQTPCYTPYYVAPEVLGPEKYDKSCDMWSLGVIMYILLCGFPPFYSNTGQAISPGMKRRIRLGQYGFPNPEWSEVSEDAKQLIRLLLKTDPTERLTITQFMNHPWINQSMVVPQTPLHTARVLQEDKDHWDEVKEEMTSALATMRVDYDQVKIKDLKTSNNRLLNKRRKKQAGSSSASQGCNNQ
Sequence of UniProt Q8NE63 (whole entry, looked up): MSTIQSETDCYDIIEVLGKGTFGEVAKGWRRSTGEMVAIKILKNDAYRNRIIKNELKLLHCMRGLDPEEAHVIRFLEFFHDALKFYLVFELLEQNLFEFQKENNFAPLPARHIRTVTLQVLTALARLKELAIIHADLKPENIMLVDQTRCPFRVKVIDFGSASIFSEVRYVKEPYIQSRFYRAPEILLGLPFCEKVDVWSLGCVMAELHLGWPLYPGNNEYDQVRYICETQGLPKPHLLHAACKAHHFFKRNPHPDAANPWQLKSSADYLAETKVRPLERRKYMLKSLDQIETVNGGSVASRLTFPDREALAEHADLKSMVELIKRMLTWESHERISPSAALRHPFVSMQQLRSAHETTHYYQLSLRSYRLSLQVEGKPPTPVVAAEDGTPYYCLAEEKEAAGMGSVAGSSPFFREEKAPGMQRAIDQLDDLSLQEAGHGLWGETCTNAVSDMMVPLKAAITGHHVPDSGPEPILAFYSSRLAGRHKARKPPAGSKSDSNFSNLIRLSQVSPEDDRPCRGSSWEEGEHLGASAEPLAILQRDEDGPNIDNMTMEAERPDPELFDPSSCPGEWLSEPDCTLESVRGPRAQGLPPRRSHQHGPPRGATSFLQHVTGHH
Sequence of UniProt P11362 (whole entry, looked up): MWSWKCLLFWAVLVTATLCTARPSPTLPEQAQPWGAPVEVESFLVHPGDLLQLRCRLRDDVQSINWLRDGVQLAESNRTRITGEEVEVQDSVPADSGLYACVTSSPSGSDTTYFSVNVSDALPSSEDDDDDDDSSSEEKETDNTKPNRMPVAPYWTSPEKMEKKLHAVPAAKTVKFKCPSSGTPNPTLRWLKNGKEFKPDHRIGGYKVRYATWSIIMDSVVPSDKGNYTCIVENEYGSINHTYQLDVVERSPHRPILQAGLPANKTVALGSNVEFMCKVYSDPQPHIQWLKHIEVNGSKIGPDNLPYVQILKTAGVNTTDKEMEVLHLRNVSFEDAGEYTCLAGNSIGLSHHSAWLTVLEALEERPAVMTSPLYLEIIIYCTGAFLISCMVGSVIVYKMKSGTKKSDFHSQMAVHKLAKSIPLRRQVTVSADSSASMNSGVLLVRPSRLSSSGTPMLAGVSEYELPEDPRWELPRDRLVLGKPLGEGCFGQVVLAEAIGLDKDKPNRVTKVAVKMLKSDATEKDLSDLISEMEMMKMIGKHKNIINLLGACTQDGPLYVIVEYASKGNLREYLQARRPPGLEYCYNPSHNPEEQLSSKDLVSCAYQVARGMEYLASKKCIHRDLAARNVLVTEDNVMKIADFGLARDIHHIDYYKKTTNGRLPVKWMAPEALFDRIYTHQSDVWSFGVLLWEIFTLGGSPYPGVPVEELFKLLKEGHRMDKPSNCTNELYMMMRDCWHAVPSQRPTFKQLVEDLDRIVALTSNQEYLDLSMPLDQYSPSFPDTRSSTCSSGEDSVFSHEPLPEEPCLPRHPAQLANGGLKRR
Sequence of UniProt P54760 (whole entry, looked up): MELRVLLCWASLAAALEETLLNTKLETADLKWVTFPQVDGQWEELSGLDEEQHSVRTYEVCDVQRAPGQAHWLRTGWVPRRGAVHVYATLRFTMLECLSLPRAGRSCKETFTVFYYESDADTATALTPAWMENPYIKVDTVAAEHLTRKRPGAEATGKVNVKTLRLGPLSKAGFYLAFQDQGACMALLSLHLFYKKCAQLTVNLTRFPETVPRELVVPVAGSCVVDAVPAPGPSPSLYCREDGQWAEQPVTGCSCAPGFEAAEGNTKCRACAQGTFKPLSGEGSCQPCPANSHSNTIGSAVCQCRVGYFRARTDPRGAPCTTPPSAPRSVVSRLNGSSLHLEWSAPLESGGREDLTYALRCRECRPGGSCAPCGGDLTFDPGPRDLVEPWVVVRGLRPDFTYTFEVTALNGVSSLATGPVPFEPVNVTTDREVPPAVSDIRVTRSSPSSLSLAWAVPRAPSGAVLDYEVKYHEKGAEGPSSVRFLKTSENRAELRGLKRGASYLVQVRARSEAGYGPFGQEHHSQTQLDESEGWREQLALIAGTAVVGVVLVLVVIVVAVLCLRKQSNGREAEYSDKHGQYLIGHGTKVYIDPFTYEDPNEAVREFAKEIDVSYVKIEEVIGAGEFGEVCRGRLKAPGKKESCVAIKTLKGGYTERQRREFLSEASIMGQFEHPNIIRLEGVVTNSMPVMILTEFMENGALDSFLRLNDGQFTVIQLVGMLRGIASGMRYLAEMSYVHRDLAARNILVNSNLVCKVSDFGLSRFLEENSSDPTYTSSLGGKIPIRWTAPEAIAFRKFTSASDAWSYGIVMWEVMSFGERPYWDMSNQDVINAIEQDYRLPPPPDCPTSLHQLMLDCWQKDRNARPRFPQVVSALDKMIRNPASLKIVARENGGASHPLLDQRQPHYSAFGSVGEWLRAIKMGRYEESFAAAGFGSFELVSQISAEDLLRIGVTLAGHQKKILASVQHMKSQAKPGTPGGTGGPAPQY
Sequence of UniProt P31751 (whole entry, looked up): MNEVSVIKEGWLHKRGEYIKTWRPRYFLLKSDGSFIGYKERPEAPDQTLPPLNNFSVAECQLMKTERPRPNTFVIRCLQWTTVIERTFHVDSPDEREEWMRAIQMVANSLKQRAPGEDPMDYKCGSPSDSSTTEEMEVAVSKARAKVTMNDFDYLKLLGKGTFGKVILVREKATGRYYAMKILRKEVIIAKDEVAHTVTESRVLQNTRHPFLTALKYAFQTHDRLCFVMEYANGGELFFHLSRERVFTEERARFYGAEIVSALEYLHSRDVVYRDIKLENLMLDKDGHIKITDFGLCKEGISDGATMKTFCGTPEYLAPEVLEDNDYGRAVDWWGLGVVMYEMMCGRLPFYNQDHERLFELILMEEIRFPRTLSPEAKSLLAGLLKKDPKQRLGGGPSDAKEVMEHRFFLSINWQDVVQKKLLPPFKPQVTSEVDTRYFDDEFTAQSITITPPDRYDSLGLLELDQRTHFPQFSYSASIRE

Study 1 — read-out: cell-free assay; technique: competition with immobilised ligand; concentration: 1 µM; quantity: remaining binding
Structure (SMILES): O=C(Nc1cnc(Oc2ccc(F)cc2)nc1)N1CCc2ncccc2[C@@H]1c1ccc(F)cc1
DMPK (Homo sapiens, UniProt Q09013): 98%
STK16 (Homo sapiens, UniProt O75716): 100%
MET (Homo sapiens, UniProt P08581, Y1235D): 93%
EGFR (Homo sapiens, UniProt P00533, L858R): 92%
MET (Homo sapiens, UniProt P08581, M1250T): 100%
PRKD3 (Homo sapiens, UniProt O94806): 84%
Ribosomal protein S6 kinase alpha-4, N-terminal kinase domain (RPS6KA4, Homo sapiens, UniProt O75676): 91%
SIK2 (Homo sapiens, UniProt Q9H0K1): 89%
SRPK1 (Homo sapiens, UniProt Q96SB4): 100%
CSNK2A2 (Homo sapiens, UniProt P19784): 100%
NEK5 (Homo sapiens, UniProt Q6P3R8): 90%
FGFR1 (Homo sapiens, UniProt P11362): 82%
MAP2K4 (Homo sapiens, UniProt P45985): 100%
Aurora kinase C (AURKC, Homo sapiens, UniProt Q9UQB9): 81%
SRC (Homo sapiens, UniProt P12931): 93%
AKT2 (Homo sapiens, UniProt P31751): 100%
STK11 (Homo sapiens, UniProt Q15831): 75%
MAP3K19 (Homo sapiens, UniProt Q56UN5): 81%
MYLK4 (Homo sapiens, UniProt Q86YV6): 88%
EGFR (Homo sapiens, UniProt P00533, T790M): 91%
ERN1 (Homo sapiens, UniProt O75460): 85%
Non-receptor tyrosine-protein kinase TYK2, JH1 (TYK2, Homo sapiens, UniProt P29597): 97%

Study 2 — read-out: enzyme activity; action: inhibitor; concentration: 0.5 µM; baseline: control; quantity: remaining activity
Compound: NC(=O)c1cccc(-c2cc(Nc3ccc(OC(F)(F)F)cc3)ncn2)c1
WNK3 (Homo sapiens, UniProt Q9BYP7): 105%
AXL (Homo sapiens, UniProt P30530): 101%
MAP4K4 (Homo sapiens, UniProt O95819): 104%
EPHB4 (Homo sapiens, UniProt P54760): 90.6%
HIPK4 (Homo sapiens, UniProt Q8NE63): 101%
RPS6KA6 (Homo sapiens, UniProt Q9UK32): 94.2%
Cyclin-dependent kinase 1, with cyclin B (CDK1, Homo sapiens, UniProt P06493): 92.5%
PHKG1 (Homo sapiens, UniProt Q16816): 99.2%
DYRK3 (Homo sapiens, UniProt O43781): 99.9%
HIPK2 (Homo sapiens, UniProt Q9H2X6): 102%
CAMK2B (Homo sapiens, UniProt Q13554): 100%
SRMS (Homo sapiens, UniProt Q9H3Y6): 93.4%
Cyclin-dependent kinase 4, with cyclin D3 (CDK4, Homo sapiens, UniProt P11802): 98.4%
PDPK1 (Homo sapiens, UniProt O15530): 98.3%
MAPKAPK3 (Homo sapiens, UniProt Q16644): 98%
BLK (Homo sapiens, UniProt P51451): 103%
EPHB1 (Homo sapiens, UniProt P54762): 105%
STK17A (Homo sapiens, UniProt Q9UEE5): 98.7%

Study 3 — organism: Toxoplasma gondii; read-out: parasite growth; technique: drug-repurposing HTS, FLUC reporter; concentration: concentration not given; quantity: activity
O=c1c(-c2ccccc2)c1-c1ccccc1: inactive
Cl.O=C1[C@H]2CCCC[C@H]2C(=O)N1CCCCN1CCN(c2nsc3ccccc23)CC1: inactive
CCCCCCNC(=O)n1cc(F)c(=O)[nH]c1=O: active
O=c1[nH]cc(F)c(=O)[nH]1: active
Oc1c(Cl)cc(Cl)c2cccnc12: inactive
COc1cc(NC(C)CCCN)c2ncccc2c1.O=P(O)(O)O.O=P(O)(O)O (stereo not shown): inactive
C[C@H]1[C@H](OC(=O)CCC(=O)O)O[C@@H]2O[C@@]3(C)CC[C@H]4[C@H](C)CC[C@@H]1[C@@]24OO3: active

Other studies, line by line
COc1ccc(-c2c(Nc3ccccn3)[nH]c3c(C4=CCCCC4)c(-c4ccccc4)nn3c2=O)cc1
fluctuation over dosing interval (human, plasma; oral, 200 mg twice daily): 40.3% and 47.1% and 26%

NC1C(O)O[C@H](CO)C(O[C@@H]2O[C@H](CO)C(O[C@@H]3O[C@H](CO)[C@@H](O)[C@H](O)[C@H]3N)[C@H](O)C2N)C1O (stereo partly shown)
viability (A-375; 100 µM, 60 h): 99.5%

Excerpt of the above (study 1):
MET (Homo sapiens, UniProt P08581, Y1235D): 93%
EGFR (Homo sapiens, UniProt P00533, L858R): 92%
MET (Homo sapiens, UniProt P08581, M1250T): 100%
PRKD3 (Homo sapiens, UniProt O94806): 84%
Ribosomal protein S6 kinase alpha-4, N-terminal kinase domain (RPS6KA4, Homo sapiens, UniProt O75676): 91%
SIK2 (Homo sapiens, UniProt Q9H0K1): 89%
SRPK1 (Homo sapiens, UniProt Q96SB4): 100%
CSNK2A2 (Homo sapiens, UniProt P19784): 100%
